Assay results gathered from unrelated publications.
A part holds a random share of what one study measured.

Study 1
Target: Histone acetyltransferase KAT6A, both winged helices, GST fusion (KAT6A, Homo sapiens, UniProt Q92794, residues 1-181)
Technique: protein binding microarray
Molecule type: double-stranded DNA, one strand shown
Medium: in vitro
Tested at: not given
Notes: 8-mer, flanks averaged, mean of 2 arrays, mostly near background
Relative to: not given
Reading: higher = stronger binding
Quantity: E-score
Construct (chain): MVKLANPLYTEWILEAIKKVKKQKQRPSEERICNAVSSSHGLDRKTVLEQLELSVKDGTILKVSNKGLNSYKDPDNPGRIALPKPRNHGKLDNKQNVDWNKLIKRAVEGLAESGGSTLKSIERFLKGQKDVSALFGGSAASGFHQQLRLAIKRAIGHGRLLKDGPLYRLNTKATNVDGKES
CCCGATGA: 0.117
ACAAAGCT: -0.0109
AAGCTAAT: -0.0755
ACACTGAT: -0.133

Study 2
Target: Interferon regulatory factor 7, full length, phosphomimetic (IRF7, Homo sapiens, UniProt Q92985, residues 1-503, S471D/S472D/S475D/S476D/S477D/S483D/S484D/S487D)
Technique: protein-binding microarray
Molecule type: double-stranded DNA, one strand shown
Medium: in vitro
Tested at: 2200 nM top
Notes: 60-bp whole probe
Added: salmon DNA 0.4 mg/ml
Relative to: random background probes
Reading: higher = stronger binding
Quantity: fitted relative affinity
Target sequence (chain): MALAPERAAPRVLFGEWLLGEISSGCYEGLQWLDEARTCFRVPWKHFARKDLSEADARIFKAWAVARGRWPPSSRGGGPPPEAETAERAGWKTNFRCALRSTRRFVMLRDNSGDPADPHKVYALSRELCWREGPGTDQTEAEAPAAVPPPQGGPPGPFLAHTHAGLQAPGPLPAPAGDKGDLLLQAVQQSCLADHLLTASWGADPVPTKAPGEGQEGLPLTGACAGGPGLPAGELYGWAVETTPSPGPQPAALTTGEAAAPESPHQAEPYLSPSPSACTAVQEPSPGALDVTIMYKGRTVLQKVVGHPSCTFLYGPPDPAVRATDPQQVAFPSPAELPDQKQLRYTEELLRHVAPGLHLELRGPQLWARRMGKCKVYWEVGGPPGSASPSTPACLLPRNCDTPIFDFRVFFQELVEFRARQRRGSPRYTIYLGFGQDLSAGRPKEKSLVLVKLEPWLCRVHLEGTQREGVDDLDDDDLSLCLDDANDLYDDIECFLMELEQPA
GCCTAGCACTCTACTTCTCTTTTTGCTTTGTGCTAGGTCTTGATTCGCTTGACGCTGCTG: 3.46 z-score
GCCTAGCACGGGTGGGAGCCGAAGACGCCGTGCTAGGTCTTGATTCGCTTGACGCTGCTG: -1.33 z-score
GCCTAGCACTCAGGACTGGACACTGGGTTAGTGCTAGTCTTGATTCGCTTGACGCTGCTG: -0.897 z-score

Further values, each from its own experiment
WRKY33 C-terminal DNA-binding domain: Probable WRKY transcription factor 33, C-terminal DNA-binding domain (WRKY33, Arabidopsis thaliana, UniProt Q8S8P5, residues 346-449)
UniProt Q8S8P5, sequence (346-449, looked up): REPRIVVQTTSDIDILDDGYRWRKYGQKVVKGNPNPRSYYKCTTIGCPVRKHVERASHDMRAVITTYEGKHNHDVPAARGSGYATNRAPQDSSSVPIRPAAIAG
AAAAAACCAGTCTACACCGCTGTAGGAAAA  relative absorbance (WRKY33 C-terminal DNA-binding domain; DNA-protein interaction ELISA; double-stranded DNA, one strand shown, in vitro, bacterial lysate; not given, whole dsDNA probe, crude lysate protein; relative to: highest signal in screen, higher = stronger binding): 42.1 % of maximum
PhoQ, residues 284 288 289 292 302 303 ALAMYF  fold induction (PhoP, residues 12 14 15 18 19 LWHVM (Escherichia coli, UniProt P23836); Sort-seq, item: YFP reporter; E. coli; PhoQ-PhoP variant library, added: 10 µM Mg2+; relative to: high Mg2+ state, higher = stronger signaling): 2.97
AAAAAAAGGGTGCTATTCGTCGACACAAAA  relative absorbance (WRKY33 C-terminal DNA-binding domain; DNA-protein interaction ELISA; double-stranded DNA, one strand shown, in vitro, bacterial lysate; not given, whole dsDNA probe, crude lysate protein; relative to: highest signal in screen, higher = stronger binding): 59.2 % of maximum
AAAAAAATCATCCTATTGTTGCTGTCAAAA  relative absorbance (WRKY33 C-terminal DNA-binding domain; DNA-protein interaction ELISA; double-stranded DNA, one strand shown, in vitro, bacterial lysate; not given, whole dsDNA probe, crude lysate protein; relative to: highest signal in screen, higher = stronger binding): 34.1 % of maximum

For quick reference, copied from above (study 1):
CCCGATGA: 0.117
